Published values gathered from unrelated publications.
Each line is one published result; not all experiments were run side by side. ± marks the error that the study gave.
Cell line: RAW264.7

O=C(/C=C/c1ccc(O)c(O)c1)NCCc1ccccc1  IC50 (cytotoxicity; 24 h): 35.2 ± 3.15 µM
COc1ccc(/C=N\NC(=O)[C@]2(C)C3CC[C@]4(C)C(C(=O)C=C5C6[C@@H](C)[C@H](C)CC[C@]6(C)CC[C@]54C)[C@@]3(C)CC[C@H]2OC(C)=O)cc1 (stereo partly shown)  viability (cell growth or viability, MTT; 25 µM, 24 h): 99%
COc1cc2c(cc1O)[C@]1(O)C(=O)c3c(O)cc4c(c3O[C@@H]1CO2)C=CC(C)(C)O4  viability (cell growth or viability, MTT; 50 µg/mL, 24 h): 6.52%
O=c1c2cc(Cl)cc(Cl)c2oc2nc(N3CCCCC3)sc12  CC50 (cell growth or viability, MTT; 48 h): > 200 µM
CC(=O)Oc1ccc(Cn2ccc(=O)[nH]c2=O)cc1C1OC(c2ccccc2)=NN1C(C)=O (stereo not shown)  CC50 (cell growth or viability, resazurin): > 100 µM
CC(C)=CCc1c2c(c(O)c3c(=O)c(-c4ccc(O)cc4)coc13)CC(C(C)(C)O)O2 (stereo not shown)  viability (cell growth or viability, MTT; 12.5 µg/mL, 24 h): 107%
O=[N+]([O-])c1c(Br)c(Cl)c2cccnc2c1O  IC50 (cell growth or viability, CCK-8; 48 h): ~52.2 µg/mL
O=C1C(O)=C(I)C(=O)c2ccccc21  CC50 (cell growth or viability, resazurin): 56.2 µM
CC(=O)O[C@@H]1CC[C@@]2(C)C(CC[C@]3(C)C2C(=O)C=C2C4[C@@H](C)[C@H](C)CC[C@]4(C)CC[C@]23C)[C@@]1(C)C(=O)N/N=C\c1ccccc1O (stereo partly shown)  viability (cell growth or viability, MTT; 25 µM, 24 h): 95%
CC(C)=CCc1cc(-c2coc3cc(O)c(CC=C(C)C)c(O)c3c2=O)ccc1O  viability (cell growth or viability, MTT; 50 µg/mL, 24 h): 8.67%
Cc1ccc(C)c2sc(NC(=O)C3CCN(S(=O)(=O)c4ccc(F)cc4)CC3)nc12  cytotoxicity (MTT; up to 30 µM, 24 h): not toxic
O=C(CCc1ccc(O)c(O)c1)NCCc1ccc(O)c(O)c1  IC50 (cytotoxicity; 24 h): > 100 µM
CC(=O)Oc1ccc(Cn2ccc(=O)[nH]c2=O)cc1C1OC(c2cccc(Cl)c2)=NN1C(C)=O (stereo not shown)  CC50 (cell growth or viability, resazurin): > 100 µM
C[C@H]1[C@H](C)CC[C@]2(C(=O)O)CC[C@]3(C)C(=CC[C@@H]4[C@@]5(C)CC[C@H](O[C@@H]6O[C@@H](C)[C@H](O)[C@@H](O)[C@H]6O)C(C)(C)[C@@H]5CC[C@]43C)[C@H]12  lowest cytotoxic concentration (with: LPS): 20 µM
COc1ccc(-c2coc3c(CC=C(C)C)c(O)c(CC=C(C)C)c(O)c3c2=O)cc1O  viability (cell growth or viability, MTT; 25 µg/mL, 24 h): 63.9%
CC(=O)Oc1ccc(Cn2cc(F)c(=O)[nH]c2=O)cc1C1OC(c2ccccc2)=NN1C(C)=O (stereo not shown)  CC50 (cell growth or viability, resazurin): > 100 µM
CC(C)=CCc1c(O)c(CC=C(C)C)c2occ(-c3ccc(O)c(O)c3)c(=O)c2c1O  viability (cell growth or viability, MTT; 50 µg/mL, 24 h): 5.49%
CC(=O)Oc1ccc(Cn2nc(C)c(=O)[nH]c2=O)cc1C1OC(c2cccc(Cl)c2)=NN1C(C)=O (stereo not shown)  CC50 (cell growth or viability, resazurin): 21.7 µM
CCN(CC)c1nc2oc3ccccc3c(=O)c2s1  CC50 (cell growth or viability, MTT; 48 h): 47.8 µM
COc1ccc(/C=N\NC(=O)[C@]2(C)C3CC[C@]4(C)C(C(=O)C=C5C6[C@@H](C)[C@H](C)CC[C@]6(C)CC[C@]54C)[C@@]3(C)CC[C@H]2OC(C)=O)cc1O (stereo partly shown)  viability (cell growth or viability, MTT; 25 µM, 24 h): 92%
CC(=O)Oc1ccc(Cn2cc(F)c(=O)[nH]c2=O)cc1C1OC(c2ccc(Cl)cc2)=NN1C(C)=O (stereo not shown)  CC50 (cell growth or viability, resazurin): 19.2 µM
CN(C)C1CCN(c2nc3oc4ccccc4c(=O)c3s2)CC1  CC50 (cell growth or viability, MTT; 48 h): 84.6 µM

Repeated from above:
CC(=O)Oc1ccc(Cn2ccc(=O)[nH]c2=O)cc1C1OC(c2cccc(Cl)c2)=NN1C(C)=O (stereo not shown)  CC50 (cell growth or viability, resazurin): > 100 µM
CC(=O)O[C@@H]1CC[C@@]2(C)C(CC[C@]3(C)C2C(=O)C=C2C4[C@@H](C)[C@H](C)CC[C@]4(C)CC[C@]23C)[C@@]1(C)C(=O)N/N=C\c1ccccc1O (stereo partly shown)  viability (cell growth or viability, MTT; 25 µM, 24 h): 95%
CC(=O)Oc1ccc(Cn2cc(F)c(=O)[nH]c2=O)cc1C1OC(c2ccccc2)=NN1C(C)=O (stereo not shown)  CC50 (cell growth or viability, resazurin): > 100 µM
Cc1ccc(C)c2sc(NC(=O)C3CCN(S(=O)(=O)c4ccc(F)cc4)CC3)nc12  cytotoxicity (MTT; up to 30 µM, 24 h): not toxic
